Experimental data from different studies.
Protocols differ between the studies behind these lines. Several values in a cell are separate wells, animals, samples, runs or records. ± marks the error that the study gave.
TDP1: Tyrosyl-DNA phosphodiesterase 1 (TDP1, Homo sapiens, UniProt Q9NUW8)
UniProt Q9NUW8, sequence (whole entry, looked up): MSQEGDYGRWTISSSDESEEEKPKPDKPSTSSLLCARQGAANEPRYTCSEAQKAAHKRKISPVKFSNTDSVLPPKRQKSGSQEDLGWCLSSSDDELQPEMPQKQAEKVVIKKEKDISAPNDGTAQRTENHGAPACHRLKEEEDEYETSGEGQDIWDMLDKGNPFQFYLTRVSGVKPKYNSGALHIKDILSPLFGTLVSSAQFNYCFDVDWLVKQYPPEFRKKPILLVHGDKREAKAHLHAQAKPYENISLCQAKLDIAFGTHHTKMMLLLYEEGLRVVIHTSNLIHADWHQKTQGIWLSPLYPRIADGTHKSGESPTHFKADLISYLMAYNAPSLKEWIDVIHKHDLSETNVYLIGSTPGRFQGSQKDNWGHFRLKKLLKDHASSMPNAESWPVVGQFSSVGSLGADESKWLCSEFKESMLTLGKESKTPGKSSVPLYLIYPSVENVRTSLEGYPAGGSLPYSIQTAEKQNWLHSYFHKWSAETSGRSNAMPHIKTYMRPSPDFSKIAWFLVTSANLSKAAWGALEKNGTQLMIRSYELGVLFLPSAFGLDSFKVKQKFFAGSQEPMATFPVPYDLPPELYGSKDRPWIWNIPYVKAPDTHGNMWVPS

| Compound | target or system | test | setting | how to read | endpoint | result |
| --- | --- | --- | --- | --- | --- | --- |
| Cn1ncc2cc(-c3cncc(Cl)c3N3CCC4(CCNC4=O)CC3)ccc21 | LS174T | gene expression, microarray, item: EDN2 mRNA | concentration not given, 4 h | baseline: untreated cells | log2 fold change | 1.41 |
| CC(C)c1ccc(N(C)c2ccc3c(c2)OCC[C@H]3CNc2cnccc2C(=O)O)cc1 | NCI-H1048 | cell viability, CellTiter-Glo | 7 days | – | IC50 | 0.706 nM |
| COC(=O)c1cc(NC2=NC(=O)C(=Cc3ccc(N(C)C)cc3)S2)ccc1OC(C)=O | MCF7 | GC-MS, item: Cycloserine | 1 µM | baseline: DMSO | metabolite level | -1.71 fold change |
| CCCC[N+]1=c2cc3c4cc2[O][Mn-2]1(=[C]=O)(=[C]=O)(=[C]=O)[n+]1ccc(cc1)C(=O)OCCOC(=O)c1cc[n+](cc1)[Mn-2](=[C]=O)(=[C]=O)(=[C]=O)([O]3)[N+]=4CCCC | HCT-15 | MTT | 50 µM, 48 h, photolysed compound | – | viability reduction | ~92% |
| CN(C)CCN1CCN(c2ccc3nc(-c4ccc5nc(-c6ccc(C(F)(F)F)cc6)[nH]c5c4)[nH]c3c2)CC1 | UACC-257 | SRB | 10 µM, 48 h | – | growth percent | 40.7% |
| Cc1c(Cl)cccc1Nc1ccccc1C(=O)[Se]CC(=O)Nc1cccc(C(F)(F)F)c1 | NCI60 melanoma subpanel | cell growth | 10 µM, 48 h, one-dose | – | mean growth percent | -78.9% |
| CCC(=CCc1c(O)cc2c(c1O)C(=O)CC(c1ccc(O)cc1)O2)CC (stereo not drawn) | HeLa | annexin V/PI | 24 µM, 48 h | – | early apoptotic cells | 0.29 ± 0.02% |
| CN1CCCNC(=O)c2cccc(c2)C(=O)NCCCN(C)CCCNc2cccc3c2C(=O)c2cccc(c2C3=O)NCCC1 | SAS | RNA-seq, item: MDC1-AS1 mRNA | 1 µM, 6 h | baseline: untreated cells | log2 fold change | 1.25 |
| C=CC(=O)Nc1cc(Nc2nccc(-c3c(-c4ccc(-c5ccc(CC)cc5)cc4)n(C)c4ccccc34)n2)c(OC)cc1N(C)CCN(C)C | NCI-H1975 | cell growth or viability, MTT | 0.5 µM, 72 h | – | inhibition | 60.3% |
| CN1CCC(N[C@H]2CCc3[nH]c4c(C(N)=O)ccc(-c5ccccc5Cl)c4c3C2)CC1 | A549 parental | cell proliferation | – | – | IC50 | 2270 nM |
| COc1cc(N(C)CCN(C)C)c(NC(=O)/C=C/c2cc(F)cc(Cl)c2)cc1Nc1nccc(-c2cn(C)c3ccccc23)n1 | NCI-H1975 | cell growth or viability, MTT | 0.5 µM, 72 h | – | inhibition | 71.5% |
| O=C(C[Se]C(=O)c1ccccc1Nc1ccccc1)Nc1cccc(C(F)(F)F)c1 | NCI60 leukaemia subpanel | NCI60 five-dose screen | – | – | GI50 | 1730 nM |
| CCOC(=O)c1ccc(NC(=O)C(C#N)=C2C(=O)c3ccccc3C2=O)cc1 | HepG2 | cell growth or viability, MTT | 3.125 µM, 24 h | – | viability | 96.5% |
| O=C(N1CCCC1)n1cc(-c2ccc(-c3ccccc3)cc2)nn1 | mouse T cells | N-terminal labelling proteomics, item: PAIP2 N-terminal peptides | 0.001 µM, 6 h | baseline: DMSO | SILAC ratio | 1.06 |
| O=C(O)c1ccc(Nc2c(-c3ccccc3)nc3ccc(CON=Cc4ccc5[nH]ccc5c4)cn23)cc1 (mixture of isomers) | TDP1 | enzyme activity, inhibitor | 100 µM, unpurified compound | – | inhibition | 37.6% |
| CCN(CC)CC(=O)Nc1cccc(-n2cc(-c3ccc4ccc(-c5cn(-c6cccc(NC(=O)CN(CC)CC)c6)nn5)cc4c3)nn2)c1 | RCC4 | PCR array, item: F3 | 5 x IC50, 4 h, normoxia | baseline: untreated | fold regulation | -1.46 |
| C=CC(=O)Nc1cc(Nc2nccc(-c3c(-c4cccc(OC)c4)n(C)c4ccccc34)n2)c(OC)cc1N(C)CCN(C)C | NCI-H1975 | cell growth or viability, MTT | 0.5 µM, 72 h | – | inhibition | 77% |
| C=C(NC(=O)c1csc(-c2ccc(NC(=O)CCCCCBr)cc2)n1)C(=O)NC(=C)C(=O)OC | H-MESO-1 | cell viability, crystal violet | 24 h exposure, 48 h total | – | EC50 | 850 nM |

| Compound | target or system | test | setting | how to read | endpoint | result |
| --- | --- | --- | --- | --- | --- | --- |
| C=CS(=O)(=O)c1ccc(OC)c(-c2c[nH]c3ncc(-c4cncc(C(=O)N(C)C)c4)cc23)c1 | Ba/F3 BCR-ABL wild type | cell proliferation | 72 h | – | GI50 | > 1000 nM |
| Cc1ncsc1-c1ccc(C(C)NC(=O)C2CC(O)CN2C(=O)C(NC(=O)CCCCCCCCCCN2CCCC(Nc3ncc(Cl)c(Nc4ccccc4S(=O)(=O)C(C)C)n3)C2)C(C)(C)C)cc1 (stereo not drawn) | 22Rv1 | RNA-seq, item: SLC16A9 mRNA | concentration not given | baseline: DMSO | log2 fold change | -1.46 |
| N#Cc1cccc(/C=C/C(=O)c2ccc(O)cc2)c1 | U-87 MG | item: SNHG11 | concentration not given | baseline: untreated | mRNA level | 0.059 fold |
| N#CCCn1cc(C=NOCc2ccc3nc(-c4ccccc4)c(Nc4ccc(C(=O)O)cc4)n3c2)c(-c2cccc(Br)c2)n1 | TDP1 | enzyme activity, inhibitor | 100 µM, unpurified compound | – | inhibition | 4.7% |
| CNS(=O)(=O)Nc1nccc(Cc2c(C)c3ccc(Oc4ncccc4F)cc3oc2=O)c1F | KMRC-1 | cell viability | 7 days | – | IC50 | > 1000 nM |
| CC(=O)NCCCN(C)CCCNc1cccc2c1C(=O)c1cccc(NCCCN(C)CCCNC(C)=O)c1C2=O | SAS | RNA-Seq, item: HMGN2 mRNA | 1 µM, 24 h | baseline: untreated cells | log2 fold change | 0.295 |
| O=C(C[Se]C(=O)c1ccc2ccccc2c1)Nc1cccc(C(F)(F)F)c1 | NCI60 melanoma subpanel | cell growth | 10 µM, 48 h, one-dose | – | mean growth percent | -79.4% |
| CCN(C(=O)c1cc(F)ccc1Oc1nncnc1N1CCC2(C1)CN([C@H](CCCN(C)CCOC)C(C)C)C2)C(C)C | SK-BR-3 | cell growth or viability | 72 h | – | GI50 | > 10000 nM |
| COc1ccc(Cn2cc3c(n2)CN(c2cccc(C(=O)N(C)C)c2)C3)cc1 | HEK293 expressing GluA1 and GluA2 | glutamate excitotoxic cell death, CellTox Green | together with: glutamate | – | IC50 | 62 nM |
| COc1ccc2c(c1)c(CC(=O)[Se]CC(=O)Nc1cccc(C(F)(F)F)c1)c(C)n2C(=O)c1ccc(Cl)cc1 | NCI60 melanoma subpanel | total growth inhibition, inhibitor | five-dose | – | mean TGI | 4.39 µM |
| COCCCCCNc1nc(NCCCCCCN(C)C)c2cc(NC(=O)/C=C/CN(C)C)ccc2n1 | MCF7 | CellTiter-Glo | 0.7812 µM, 48 h, unit not given | baseline: DMSO-treated cells | viability | 1.12 and 1.17 and 1.11 |
| COc1ccc(CSC2C3=C(CCCC3=O)Oc3ccc(Br)cc32)cc1 (stereo not drawn) | 3T3-L1 preadipocytes | adipogenesis, Oil Red O staining | IC20, 14 days, single replicate | – | lipid content | 0.823 OD492 and 0.935 OD492 and 0.741 OD492 |
| CO[C@@H]1[C@@H](OC(N)=O)[C@@H](O)[C@H](Oc2ccc3c(O)c(NC(=O)c4ccc(O)c(CC=C(C)C)c4)c(=O)oc3c2C)OC1(C)C | HCT-116 parental | – | 150 µM, replicate 1 | – | colony count | 19 |
| O=C(C[Se]C(=O)c1ccc2ccccc2n1)Nc1cccc(C(F)(F)F)c1 | NCI60 melanoma subpanel | cell growth | 10 µM, 48 h, one-dose | – | mean growth percent | -84.4% |
| COc1ccccc1-c1ccncc1C(=O)Nc1ccc(OCc2ccc(Cl)cc2)nn1 | DLD-1 parental (BRCA2 WT) | – | 5 µM, single run | baseline: untreated | colony survival | 101% and 98.6% and 103% |
| COc1cc(N(C)CCN(C)C)c(NC(=O)/C=C/c2cc(C)cc(C)c2)cc1Nc1nccc(-c2cn(C)c3ccccc23)n1 | NCI-H1975 | cell growth or viability, MTT | 0.5 µM, 72 h | – | inhibition | 59.4% |
| O=C(C[Se]C(=O)c1cc2ccccc2[nH]1)Nc1cccc(C(F)(F)F)c1 | NCI60 leukaemia subpanel | NCI60 five-dose screen | – | – | GI50 | 1500 nM |
| COc1cccc(OC)c1-c1cc(C(=O)NC2(C(=O)O)C3CC4CC(C3)CC2C4)nn1-c1ccc(C(=O)N(C)CCCN(C)C(=O)[C@H](CCCCNC(=O)[C@H](CC(C)C)NC(=O)C2OC2C(=O)O)NC(=O)CN2CCN(CC(=O)[O-])CCN(CC(=O)[O-])CCN(CC(=O)[O-])CC2)cc1C(C)C.[177Lu+3] (mixture of isomers) | HT-29 | – | 240 min, 4 h | baseline: added activity | internalized fraction | 5.41 ± 0.51% |

For quick reference, copied from above:
| Compound | target or system | test | setting | how to read | endpoint | result |
| --- | --- | --- | --- | --- | --- | --- |
| CCN(C(=O)c1cc(F)ccc1Oc1nncnc1N1CCC2(C1)CN([C@H](CCCN(C)CCOC)C(C)C)C2)C(C)C | SK-BR-3 | cell growth or viability | 72 h | – | GI50 | > 10000 nM |
| Cc1ncsc1-c1ccc(C(C)NC(=O)C2CC(O)CN2C(=O)C(NC(=O)CCCCCCCCCCN2CCCC(Nc3ncc(Cl)c(Nc4ccccc4S(=O)(=O)C(C)C)n3)C2)C(C)(C)C)cc1 (stereo not drawn) | 22Rv1 | RNA-seq, item: SLC16A9 mRNA | concentration not given | baseline: DMSO | log2 fold change | -1.46 |
| CC(C)c1ccc(N(C)c2ccc3c(c2)OCC[C@H]3CNc2cnccc2C(=O)O)cc1 | NCI-H1048 | cell viability, CellTiter-Glo | 7 days | – | IC50 | 0.706 nM |
| Cn1ncc2cc(-c3cncc(Cl)c3N3CCC4(CCNC4=O)CC3)ccc21 | LS174T | gene expression, microarray, item: EDN2 mRNA | concentration not given, 4 h | baseline: untreated cells | log2 fold change | 1.41 |
| CCOC(=O)c1ccc(NC(=O)C(C#N)=C2C(=O)c3ccccc3C2=O)cc1 | HepG2 | cell growth or viability, MTT | 3.125 µM, 24 h | – | viability | 96.5% |
